Published values from different studies.
Numbered parts are unrelated; each lists some results of a single study. Several values in a cell are separate wells, animals, samples, runs or records.
Sequence of UniProt O75676 (whole entry, looked up): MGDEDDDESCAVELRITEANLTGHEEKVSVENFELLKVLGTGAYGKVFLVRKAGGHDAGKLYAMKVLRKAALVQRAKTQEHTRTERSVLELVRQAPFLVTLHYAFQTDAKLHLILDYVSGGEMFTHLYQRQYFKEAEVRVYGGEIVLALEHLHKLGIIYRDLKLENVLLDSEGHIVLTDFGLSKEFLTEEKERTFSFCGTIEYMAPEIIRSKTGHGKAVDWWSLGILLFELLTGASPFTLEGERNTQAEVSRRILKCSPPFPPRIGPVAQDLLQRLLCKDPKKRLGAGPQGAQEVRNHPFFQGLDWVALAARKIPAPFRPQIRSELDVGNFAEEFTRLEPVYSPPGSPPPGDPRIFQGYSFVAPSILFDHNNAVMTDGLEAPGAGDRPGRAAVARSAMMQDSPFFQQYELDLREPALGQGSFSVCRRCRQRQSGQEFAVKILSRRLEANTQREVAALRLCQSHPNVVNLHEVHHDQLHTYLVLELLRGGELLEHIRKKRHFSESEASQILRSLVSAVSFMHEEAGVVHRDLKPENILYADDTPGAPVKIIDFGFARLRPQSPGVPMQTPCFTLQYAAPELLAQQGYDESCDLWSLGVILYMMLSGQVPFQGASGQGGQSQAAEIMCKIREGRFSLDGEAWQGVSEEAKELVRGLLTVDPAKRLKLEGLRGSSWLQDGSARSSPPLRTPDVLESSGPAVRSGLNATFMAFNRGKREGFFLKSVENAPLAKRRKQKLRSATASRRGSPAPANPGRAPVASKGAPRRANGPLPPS
Sequence of UniProt Q9HAZ1 (whole entry, looked up): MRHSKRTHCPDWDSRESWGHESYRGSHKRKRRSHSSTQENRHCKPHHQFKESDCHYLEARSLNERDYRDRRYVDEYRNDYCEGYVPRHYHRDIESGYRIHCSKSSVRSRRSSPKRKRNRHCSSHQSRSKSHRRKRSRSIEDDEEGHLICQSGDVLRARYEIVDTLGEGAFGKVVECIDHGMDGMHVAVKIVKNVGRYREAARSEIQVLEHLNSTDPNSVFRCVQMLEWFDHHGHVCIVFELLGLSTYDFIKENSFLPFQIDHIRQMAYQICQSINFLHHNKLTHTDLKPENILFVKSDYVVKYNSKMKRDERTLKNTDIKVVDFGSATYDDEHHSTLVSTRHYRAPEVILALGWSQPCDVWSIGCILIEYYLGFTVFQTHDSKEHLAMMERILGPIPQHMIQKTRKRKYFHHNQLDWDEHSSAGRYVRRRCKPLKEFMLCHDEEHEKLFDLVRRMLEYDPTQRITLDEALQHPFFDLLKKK
Sequence of UniProt Q7KZI7 (whole entry, looked up): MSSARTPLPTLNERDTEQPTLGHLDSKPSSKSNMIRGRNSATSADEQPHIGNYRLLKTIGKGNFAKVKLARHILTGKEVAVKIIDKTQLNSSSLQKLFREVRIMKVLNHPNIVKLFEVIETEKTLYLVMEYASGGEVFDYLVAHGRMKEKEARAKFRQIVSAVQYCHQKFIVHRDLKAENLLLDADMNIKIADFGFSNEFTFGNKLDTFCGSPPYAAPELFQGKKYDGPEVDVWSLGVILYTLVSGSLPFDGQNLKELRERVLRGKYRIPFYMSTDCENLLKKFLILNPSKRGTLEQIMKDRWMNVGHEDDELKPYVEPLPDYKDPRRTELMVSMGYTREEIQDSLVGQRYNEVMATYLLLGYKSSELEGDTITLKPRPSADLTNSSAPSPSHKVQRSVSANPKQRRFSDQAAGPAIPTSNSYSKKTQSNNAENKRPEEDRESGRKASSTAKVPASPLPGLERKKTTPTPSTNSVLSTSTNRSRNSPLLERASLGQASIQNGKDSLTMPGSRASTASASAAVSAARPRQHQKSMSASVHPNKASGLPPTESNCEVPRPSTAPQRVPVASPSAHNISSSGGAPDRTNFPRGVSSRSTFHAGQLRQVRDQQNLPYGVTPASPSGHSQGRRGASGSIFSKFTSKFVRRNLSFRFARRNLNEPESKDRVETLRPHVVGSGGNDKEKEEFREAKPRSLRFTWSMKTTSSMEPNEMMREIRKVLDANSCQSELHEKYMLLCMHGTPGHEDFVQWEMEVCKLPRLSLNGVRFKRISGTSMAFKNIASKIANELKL
Sequence of UniProt Q13237 (whole entry, looked up): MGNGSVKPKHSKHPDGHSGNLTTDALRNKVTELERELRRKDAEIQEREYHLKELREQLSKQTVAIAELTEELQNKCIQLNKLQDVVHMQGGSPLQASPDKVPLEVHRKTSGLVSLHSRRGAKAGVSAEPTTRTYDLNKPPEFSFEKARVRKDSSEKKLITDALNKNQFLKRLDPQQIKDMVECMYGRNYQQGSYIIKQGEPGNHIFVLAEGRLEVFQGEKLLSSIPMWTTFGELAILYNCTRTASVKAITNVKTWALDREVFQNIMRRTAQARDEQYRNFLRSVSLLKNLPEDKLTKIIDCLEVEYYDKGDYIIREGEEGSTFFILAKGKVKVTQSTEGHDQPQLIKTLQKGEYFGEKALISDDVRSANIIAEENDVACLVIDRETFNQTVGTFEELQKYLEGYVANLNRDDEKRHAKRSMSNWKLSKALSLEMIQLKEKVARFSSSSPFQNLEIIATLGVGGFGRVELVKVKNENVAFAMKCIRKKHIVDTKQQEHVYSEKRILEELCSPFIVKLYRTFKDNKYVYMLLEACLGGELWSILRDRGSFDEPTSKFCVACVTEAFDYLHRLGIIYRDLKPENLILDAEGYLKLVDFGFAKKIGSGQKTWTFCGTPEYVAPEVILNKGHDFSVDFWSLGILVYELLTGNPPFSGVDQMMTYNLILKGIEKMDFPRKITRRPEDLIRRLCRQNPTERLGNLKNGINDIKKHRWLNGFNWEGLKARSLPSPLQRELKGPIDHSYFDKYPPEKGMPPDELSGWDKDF
Sequence of UniProt Q8N568 (whole entry, looked up): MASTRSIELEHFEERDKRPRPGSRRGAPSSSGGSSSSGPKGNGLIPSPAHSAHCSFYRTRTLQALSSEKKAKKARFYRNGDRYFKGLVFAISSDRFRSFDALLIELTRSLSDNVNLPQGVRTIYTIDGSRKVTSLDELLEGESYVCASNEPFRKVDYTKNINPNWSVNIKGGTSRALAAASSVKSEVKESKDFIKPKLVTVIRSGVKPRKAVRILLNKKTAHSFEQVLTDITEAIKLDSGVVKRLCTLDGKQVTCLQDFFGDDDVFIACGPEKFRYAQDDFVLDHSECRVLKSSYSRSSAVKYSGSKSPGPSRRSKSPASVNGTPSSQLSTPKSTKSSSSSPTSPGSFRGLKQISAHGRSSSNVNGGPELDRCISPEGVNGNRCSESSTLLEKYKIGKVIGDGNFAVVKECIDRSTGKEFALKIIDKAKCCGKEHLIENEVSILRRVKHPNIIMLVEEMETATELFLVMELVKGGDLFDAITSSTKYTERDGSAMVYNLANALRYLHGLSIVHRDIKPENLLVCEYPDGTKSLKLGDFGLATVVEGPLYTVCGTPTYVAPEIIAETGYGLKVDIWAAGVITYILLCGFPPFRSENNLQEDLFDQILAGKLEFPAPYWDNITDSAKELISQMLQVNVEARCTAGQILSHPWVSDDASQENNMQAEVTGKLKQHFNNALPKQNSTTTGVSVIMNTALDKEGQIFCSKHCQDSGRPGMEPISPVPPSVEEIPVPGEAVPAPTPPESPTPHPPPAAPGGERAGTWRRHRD
Sequence of UniProt P28482 (whole entry, looked up): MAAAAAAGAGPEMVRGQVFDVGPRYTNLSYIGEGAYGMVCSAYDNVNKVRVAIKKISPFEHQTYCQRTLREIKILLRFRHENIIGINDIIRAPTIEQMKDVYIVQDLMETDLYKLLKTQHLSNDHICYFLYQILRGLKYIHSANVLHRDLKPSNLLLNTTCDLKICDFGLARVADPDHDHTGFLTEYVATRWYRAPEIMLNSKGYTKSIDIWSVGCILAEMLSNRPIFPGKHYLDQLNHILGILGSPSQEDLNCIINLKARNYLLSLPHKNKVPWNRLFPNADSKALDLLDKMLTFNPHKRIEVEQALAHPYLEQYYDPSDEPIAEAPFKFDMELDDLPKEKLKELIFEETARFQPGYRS

Sample 1
SMILES: O=C1NC(=O)c2c1c1c3ccccc3[nH]c1c1[nH]c3cc(Br)ccc3c21
Read-out: enzyme activity
Mode: inhibitor
Tested at: 0.5 µM
Relative to: control
Endpoint: remaining activity
MAP2K1 (Homo sapiens, UniProt Q02750): 90.3%
TXK (Homo sapiens, UniProt P42681): 90.3%
DCLK2 (Homo sapiens, UniProt Q8N568): 87.2%
PRKG2 (Homo sapiens, UniProt Q13237): 29.7%
GRK4 (Homo sapiens, UniProt P32298): 99.8%
MARK2 (Homo sapiens, UniProt Q7KZI7): 40.4%
RPS6KA4 (Homo sapiens, UniProt O75676): 75.9%
CLK4 (Homo sapiens, UniProt Q9HAZ1): 49.5%
MARK4 (Homo sapiens, UniProt Q96L34): 38.7%
MAPK1 (Homo sapiens, UniProt P28482): 92.4%
PAK3 (Homo sapiens, UniProt O75914): 97.7%
AKT2 (Homo sapiens, UniProt P31751): 86.9%
MAPK11 (Homo sapiens, UniProt Q15759): 93.6%
DDR2 (Homo sapiens, UniProt Q16832): 91.8%

Sample 2
Target: D(2) dopamine receptor (DRD2, Homo sapiens, UniProt P14416)
Sequence of UniProt P14416 (whole entry, looked up): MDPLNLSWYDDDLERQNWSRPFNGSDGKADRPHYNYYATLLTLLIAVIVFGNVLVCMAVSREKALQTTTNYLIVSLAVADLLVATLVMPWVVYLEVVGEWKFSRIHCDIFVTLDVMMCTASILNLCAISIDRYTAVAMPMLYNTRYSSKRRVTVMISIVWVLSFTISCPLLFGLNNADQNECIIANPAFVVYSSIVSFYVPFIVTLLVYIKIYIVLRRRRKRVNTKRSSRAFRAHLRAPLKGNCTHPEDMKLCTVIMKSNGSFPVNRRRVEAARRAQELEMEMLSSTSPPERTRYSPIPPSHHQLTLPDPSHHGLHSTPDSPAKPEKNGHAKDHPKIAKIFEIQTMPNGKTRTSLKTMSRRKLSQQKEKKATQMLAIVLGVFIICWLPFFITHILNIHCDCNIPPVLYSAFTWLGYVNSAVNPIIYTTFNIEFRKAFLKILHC
Read-out: ligand displacement
Tested at: 10 µM
Endpoint: inhibition
C[C@@H]1CN(c2cc(-c3n[nH]c4ccc(OC5(C)CC5)cc34)ncn2)C[C@H](C)O1: -14.4%
Nc1nc(NCc2ccccc2)nc(-c2ccccc2CO)n1: 10%
C[C@H](c1ccc(F)cc1)N(Cc1cccc(C(=O)O)c1)C(=O)c1cnc2ccccc2c1: 7.61%
CS(=O)(=O)N1CCCC(NC(=O)[C@H](CCC2CCCCC2)NC(=O)c2ccc(CNC(=O)c3cnc4ccccn34)cc2)C1 (some centres unmarked): 7.14%
O=S(=O)(NC1CCC(c2cc(F)ccc2F)(S(=O)(=O)c2ccc(Cl)cc2)CC1)C(F)(F)F (centres unmarked): 11.4%
COCCOc1nc(-c2ccc(Cl)nc2)nc2c1CN(C(=O)c1ncn3ccccc13)CC2: -32.5%
CC[C@H](CC(=O)O)n1c(=O)c2ncccc2n(Cc2cn(C)c3cc(C)cc(C)c23)c1=O: 0.91%
c1ccc(C2CCN(c3cnc4c(N5CCOCC5)nccn34)CC2)cc1: 1.22%
COc1ccc2cc(OCC3(C(=O)O)CN(C(=O)c4ccc(F)cc4)C3)ccc2c1: -23.4%
Nc1nc(NCc2ccccc2)nc(-c2cccc(CO)c2)n1: -7.4%
CN(C)C(=O)c1sc2nc(N3CCC(S(C)(=O)=O)CC3)cc(C(F)(F)F)c2c1N: 1.12%
COc1cc(-c2cn(C3CCc4c(F)cccc4N(CC(F)(F)F)C3=O)nn2)ccc1-n1cnc(C)c1 (centres unmarked): 31.2%
c1ccc(N2CCN(Cc3nc4ccccc4[nH]3)CC2)nc1: -7.28%
Cc1ncc(-c2cc(Cl)ccc2F)cc1-n1c(=O)n(CC(N)=O)c2ccccc21: -1.99%
NC(=O)c1ccc2nc(-c3ccc(C4(N)CCC4)cc3)c(-c3ccccc3)n2n1: -1.55%
Cn1cc(Cl)c2c(Oc3c(F)cc(Nc4cc(Cl)nc(N)n4)cc3F)ccnc21: 1.05%

Sample 3
Target: Calcium/calmodulin-dependent protein kinase type II subunit alpha (CAMK2A, Homo sapiens, UniProt Q9UQM7)
Sequence of UniProt Q9UQM7 (whole entry, looked up): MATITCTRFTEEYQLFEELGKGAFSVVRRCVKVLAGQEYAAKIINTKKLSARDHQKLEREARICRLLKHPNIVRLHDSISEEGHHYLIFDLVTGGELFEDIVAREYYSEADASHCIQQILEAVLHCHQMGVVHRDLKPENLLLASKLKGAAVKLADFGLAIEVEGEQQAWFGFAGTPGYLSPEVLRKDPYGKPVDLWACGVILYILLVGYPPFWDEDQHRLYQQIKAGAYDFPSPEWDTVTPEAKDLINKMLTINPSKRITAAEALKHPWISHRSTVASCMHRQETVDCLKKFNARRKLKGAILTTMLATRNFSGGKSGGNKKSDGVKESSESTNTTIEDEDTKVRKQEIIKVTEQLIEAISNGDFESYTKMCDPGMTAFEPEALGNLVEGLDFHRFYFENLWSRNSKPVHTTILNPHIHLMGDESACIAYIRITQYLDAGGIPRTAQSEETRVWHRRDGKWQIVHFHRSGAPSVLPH
Read-out: enzyme activity
Mode: inhibitor
Tested at: 10 µM
Endpoint: inhibition
O=C(O)C1=CCCNC1: 1%
O=C(CCc1ccc(O)c(O)c1)NCCCNCCCCNCCCNC(=O)CCc1ccc(O)c(O)c1: -6%
O=Cc1ccc(O)c(O)c1: 6%
O=C(O)CCCCCCCCCC(=O)O: -23%
COc1cc(/C=C/C(=O)OC[C@H]2O[C@@H](O[C@@H]3[C@@H](O)[C@H](O)[C@@H](CO)O[C@H]3c3c(OC)cc4oc(-c5ccc(O)cc5)cc(=O)c4c3O)[C@H](O)[C@@H](O)[C@@H]2O)ccc1O: -29%
O=C(O)c1ccc2ccccc2n1: 15%
NC(=O)c1ccc[n+]([C@@H]2O[C@H](COP(=O)([O-])OP(=O)(O)OC[C@H]3O[C@@H](n4cnc5c(N)ncnc54)[C@H](O)[C@@H]3O)[C@@H](O)[C@H]2O)c1: 2%
CN(C)CCCN1c2ccccc2CCc2ccc(Cl)cc21: 3%
O=c1ccn([C@@H]2O[C@H](CO)[C@@H](O)[C@@H]2O)c(=O)[nH]1: -44%
COc1c2ccoc2cc2oc(C)cc(=O)c12: -16%
Cc1ncc([N+](=O)[O-])n1CCOC(=O)c1ccccc1: -9%
C[C@@]12C[C@@]3(O)O[C@@H](O1)[C@]1(COC(=O)c4ccccc4)[C@H]3C[C@@]12O[C@@H]1O[C@H](CO)[C@@H](O)[C@H](O)[C@H]1O: -6%

Sample 4
SMILES: CC(=O)N[C@@H](Cc1c[nH]c2ccccc12)C(=O)N[C@@H](CCC(=O)C=[N+]=[N-])C(=O)OC(C)C
Endpoint: tumour volume
mice, MC-38 tumour rechallenge; 0.26 mg/kg, day 8 after injection: 20.5 mm3 and 0 mm3
C57BL/6 CES1-/- mouse, EL4 tumour; intravenous, 1 mg/kg DON equivalent, treatment day 18, 5 days per week: 0 mm3
mouse, EL4 tumour; subcutaneous, 1 mg/kg, day 10: 315 mm3 and 248 mm3 and 460 mm3 and 318 mm3 and 141 mm3 and 47.8 mm3
C57BL/6 CES1-/- mouse, EL4 tumour; intravenous, 1 mg/kg DON equivalent, treatment day 16, 5 days per week: 0 mm3 and 102 mm3 and 179 mm3 and 101 mm3 and 85.2 mm3 and 85 mm3
CES1-/- mice, OVA-expressing MC-38 tumour; dose not given, day 14 after injection: 0 mm3 and 84 mm3 and 144 mm3 and 26 mm3 and 235 mm3 and 63 mm3

A few entries again (sample 1):
GRK4 (Homo sapiens, UniProt P32298): 99.8%
MARK2 (Homo sapiens, UniProt Q7KZI7): 40.4%
MAP2K1 (Homo sapiens, UniProt Q02750): 90.3%
